Results of several laboratories.
Lines come from different studies, so protocols differ. “And” joins repeats or separate records; there may be more than shown. ± marks the error that the study gave.
CASP8: Caspase-8 (CASP8, Homo sapiens, UniProt Q14790)
UniProt Q14790, sequence (whole entry, looked up): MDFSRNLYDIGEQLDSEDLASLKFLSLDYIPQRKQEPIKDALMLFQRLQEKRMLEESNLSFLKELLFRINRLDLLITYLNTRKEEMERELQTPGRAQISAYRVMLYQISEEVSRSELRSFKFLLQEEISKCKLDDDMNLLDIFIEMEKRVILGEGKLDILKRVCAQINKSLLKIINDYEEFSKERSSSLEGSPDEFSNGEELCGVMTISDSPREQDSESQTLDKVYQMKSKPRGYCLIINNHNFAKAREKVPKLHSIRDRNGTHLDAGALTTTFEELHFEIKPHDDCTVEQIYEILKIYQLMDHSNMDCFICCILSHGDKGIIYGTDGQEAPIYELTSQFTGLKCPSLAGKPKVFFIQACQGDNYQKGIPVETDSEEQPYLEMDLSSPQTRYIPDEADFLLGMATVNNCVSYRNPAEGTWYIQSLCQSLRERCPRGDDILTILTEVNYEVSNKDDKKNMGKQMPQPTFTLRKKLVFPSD
HSD3B1: 3 beta-hydroxysteroid dehydrogenase/Delta 5-->4-isomerase type 1 (HSD3B1, Homo sapiens, UniProt P14060)
UniProt P46089, sequence (whole entry, looked up): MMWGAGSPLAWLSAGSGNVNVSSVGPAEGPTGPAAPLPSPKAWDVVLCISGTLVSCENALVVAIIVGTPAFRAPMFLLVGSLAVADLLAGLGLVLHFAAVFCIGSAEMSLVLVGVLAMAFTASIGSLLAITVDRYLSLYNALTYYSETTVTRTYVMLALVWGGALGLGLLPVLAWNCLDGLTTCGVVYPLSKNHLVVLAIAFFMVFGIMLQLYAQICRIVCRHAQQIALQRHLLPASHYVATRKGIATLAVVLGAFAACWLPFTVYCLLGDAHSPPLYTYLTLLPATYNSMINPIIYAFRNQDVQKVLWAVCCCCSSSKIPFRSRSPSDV
UniProt P14060, sequence (whole entry, looked up): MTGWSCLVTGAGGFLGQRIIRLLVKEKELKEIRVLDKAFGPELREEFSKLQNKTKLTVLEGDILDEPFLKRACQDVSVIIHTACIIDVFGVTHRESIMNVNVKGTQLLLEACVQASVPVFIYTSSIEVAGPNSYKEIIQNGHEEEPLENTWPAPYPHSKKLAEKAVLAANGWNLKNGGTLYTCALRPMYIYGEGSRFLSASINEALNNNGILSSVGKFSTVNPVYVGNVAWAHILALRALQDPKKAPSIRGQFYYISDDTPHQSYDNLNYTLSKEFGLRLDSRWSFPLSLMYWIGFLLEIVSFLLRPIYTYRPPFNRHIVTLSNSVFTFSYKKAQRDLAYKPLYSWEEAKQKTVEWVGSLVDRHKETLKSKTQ
UniProt Q96C86, sequence (whole entry, looked up): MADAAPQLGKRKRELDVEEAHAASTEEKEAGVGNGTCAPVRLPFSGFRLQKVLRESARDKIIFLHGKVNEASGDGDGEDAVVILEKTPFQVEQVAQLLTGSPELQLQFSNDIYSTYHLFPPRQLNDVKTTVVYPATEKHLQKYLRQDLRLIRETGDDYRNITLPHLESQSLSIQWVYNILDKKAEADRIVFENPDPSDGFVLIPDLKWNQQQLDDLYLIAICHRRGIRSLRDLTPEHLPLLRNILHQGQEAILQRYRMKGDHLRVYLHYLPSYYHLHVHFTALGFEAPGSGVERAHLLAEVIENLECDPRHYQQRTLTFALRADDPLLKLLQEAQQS
UniProt Q06124, sequence (whole entry, looked up): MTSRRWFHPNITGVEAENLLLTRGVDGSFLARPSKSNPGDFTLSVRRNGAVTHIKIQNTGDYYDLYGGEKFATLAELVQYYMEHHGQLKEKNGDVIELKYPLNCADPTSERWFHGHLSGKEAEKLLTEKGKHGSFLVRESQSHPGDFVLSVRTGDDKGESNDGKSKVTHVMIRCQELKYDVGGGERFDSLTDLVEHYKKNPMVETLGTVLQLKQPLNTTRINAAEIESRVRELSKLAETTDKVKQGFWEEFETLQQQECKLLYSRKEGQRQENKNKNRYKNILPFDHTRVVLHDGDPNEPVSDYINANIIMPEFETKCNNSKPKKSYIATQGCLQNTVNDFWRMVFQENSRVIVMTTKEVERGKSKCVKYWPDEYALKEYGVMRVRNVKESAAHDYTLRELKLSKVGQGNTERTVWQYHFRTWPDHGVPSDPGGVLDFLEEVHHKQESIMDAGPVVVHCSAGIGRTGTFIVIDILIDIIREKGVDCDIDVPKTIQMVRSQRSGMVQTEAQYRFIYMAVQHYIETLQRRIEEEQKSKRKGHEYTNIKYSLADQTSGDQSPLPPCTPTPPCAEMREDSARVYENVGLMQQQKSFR
UniProt Q6PE15, sequence (whole entry, looked up): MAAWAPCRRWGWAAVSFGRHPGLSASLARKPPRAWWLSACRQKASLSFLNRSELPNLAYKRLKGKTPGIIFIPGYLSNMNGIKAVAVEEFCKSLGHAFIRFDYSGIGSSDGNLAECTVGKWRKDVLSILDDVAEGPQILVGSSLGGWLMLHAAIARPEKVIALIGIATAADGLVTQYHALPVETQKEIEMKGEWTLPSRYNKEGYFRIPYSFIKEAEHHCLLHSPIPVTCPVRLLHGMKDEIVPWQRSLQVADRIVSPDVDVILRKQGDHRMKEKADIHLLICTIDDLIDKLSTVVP
UniProt P29597, sequence (whole entry, looked up): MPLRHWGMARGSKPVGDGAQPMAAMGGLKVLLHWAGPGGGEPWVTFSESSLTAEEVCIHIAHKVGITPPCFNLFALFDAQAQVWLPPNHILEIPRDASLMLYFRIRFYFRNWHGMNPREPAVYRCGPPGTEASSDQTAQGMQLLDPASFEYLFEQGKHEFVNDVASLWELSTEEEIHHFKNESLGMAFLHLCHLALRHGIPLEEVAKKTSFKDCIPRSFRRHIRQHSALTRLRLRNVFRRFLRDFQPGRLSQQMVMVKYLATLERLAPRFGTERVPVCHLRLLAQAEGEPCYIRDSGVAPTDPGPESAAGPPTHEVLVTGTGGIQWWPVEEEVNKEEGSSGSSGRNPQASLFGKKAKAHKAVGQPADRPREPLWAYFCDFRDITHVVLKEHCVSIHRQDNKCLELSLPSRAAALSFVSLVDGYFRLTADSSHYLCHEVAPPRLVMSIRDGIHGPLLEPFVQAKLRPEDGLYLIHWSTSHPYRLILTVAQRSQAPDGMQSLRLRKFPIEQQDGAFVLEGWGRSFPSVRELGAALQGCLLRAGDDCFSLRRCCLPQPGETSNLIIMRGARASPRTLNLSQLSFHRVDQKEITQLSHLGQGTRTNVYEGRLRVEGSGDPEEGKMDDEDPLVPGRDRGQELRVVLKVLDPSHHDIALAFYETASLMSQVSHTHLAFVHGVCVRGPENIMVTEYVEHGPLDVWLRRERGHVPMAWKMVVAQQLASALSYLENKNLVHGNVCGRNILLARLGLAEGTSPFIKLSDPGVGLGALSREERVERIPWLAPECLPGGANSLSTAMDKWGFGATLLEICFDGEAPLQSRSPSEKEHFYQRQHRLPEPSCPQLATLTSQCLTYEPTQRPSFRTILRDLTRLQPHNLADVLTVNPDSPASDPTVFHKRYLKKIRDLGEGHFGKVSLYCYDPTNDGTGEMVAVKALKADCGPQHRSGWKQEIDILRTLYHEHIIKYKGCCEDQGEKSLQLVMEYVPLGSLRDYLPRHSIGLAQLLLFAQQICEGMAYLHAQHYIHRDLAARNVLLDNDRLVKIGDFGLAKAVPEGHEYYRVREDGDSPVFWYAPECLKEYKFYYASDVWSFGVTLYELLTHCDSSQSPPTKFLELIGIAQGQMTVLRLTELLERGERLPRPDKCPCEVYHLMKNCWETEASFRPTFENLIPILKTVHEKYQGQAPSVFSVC
UniProt Q92851, sequence (whole entry, looked up): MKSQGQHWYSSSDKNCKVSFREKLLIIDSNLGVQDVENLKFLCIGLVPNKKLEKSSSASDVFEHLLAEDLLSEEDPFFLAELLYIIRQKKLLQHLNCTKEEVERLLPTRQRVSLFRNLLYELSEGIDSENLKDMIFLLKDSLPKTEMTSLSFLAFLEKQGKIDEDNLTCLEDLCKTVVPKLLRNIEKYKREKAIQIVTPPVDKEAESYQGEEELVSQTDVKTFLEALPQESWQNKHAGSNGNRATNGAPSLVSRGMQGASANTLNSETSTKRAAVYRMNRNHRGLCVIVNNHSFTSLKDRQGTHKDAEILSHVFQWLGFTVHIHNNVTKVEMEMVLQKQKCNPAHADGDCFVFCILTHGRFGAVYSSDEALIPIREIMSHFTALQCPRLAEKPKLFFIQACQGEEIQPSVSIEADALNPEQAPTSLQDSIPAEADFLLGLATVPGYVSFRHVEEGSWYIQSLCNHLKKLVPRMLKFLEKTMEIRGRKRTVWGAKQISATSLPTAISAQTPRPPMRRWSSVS
UniProt O75521, sequence (whole entry, looked up): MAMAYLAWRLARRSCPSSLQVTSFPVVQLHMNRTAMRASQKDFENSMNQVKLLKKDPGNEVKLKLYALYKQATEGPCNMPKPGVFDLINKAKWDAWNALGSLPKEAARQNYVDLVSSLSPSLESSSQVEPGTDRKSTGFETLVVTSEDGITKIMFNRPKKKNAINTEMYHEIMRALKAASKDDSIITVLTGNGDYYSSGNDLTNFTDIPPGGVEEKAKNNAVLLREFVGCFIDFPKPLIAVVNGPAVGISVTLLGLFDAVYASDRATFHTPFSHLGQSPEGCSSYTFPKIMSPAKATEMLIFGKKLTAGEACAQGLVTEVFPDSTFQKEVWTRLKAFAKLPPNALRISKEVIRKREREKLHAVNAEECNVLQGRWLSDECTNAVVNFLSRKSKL
UniProt P35348, sequence (whole entry, looked up): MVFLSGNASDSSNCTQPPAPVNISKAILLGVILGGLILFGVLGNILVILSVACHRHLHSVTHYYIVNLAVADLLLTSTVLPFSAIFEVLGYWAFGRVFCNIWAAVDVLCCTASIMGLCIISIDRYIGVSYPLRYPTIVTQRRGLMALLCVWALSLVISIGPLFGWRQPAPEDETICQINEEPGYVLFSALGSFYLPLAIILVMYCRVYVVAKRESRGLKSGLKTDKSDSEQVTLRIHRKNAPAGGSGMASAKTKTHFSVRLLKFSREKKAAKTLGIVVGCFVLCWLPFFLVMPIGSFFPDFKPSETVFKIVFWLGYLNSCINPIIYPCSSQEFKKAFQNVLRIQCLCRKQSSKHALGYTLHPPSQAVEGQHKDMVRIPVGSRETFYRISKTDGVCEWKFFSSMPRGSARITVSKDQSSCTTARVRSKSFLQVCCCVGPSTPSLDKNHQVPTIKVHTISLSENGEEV

CC(=O)N1[C@H](C(=O)N[C@@H](CC(C)C)C(=O)N[C@@H](C)C(=O)N[C@@H](CC(=O)O)C(=O)COC(=O)c2c(C)cccc2C)C[C@@H]2CCCC[C@@H]21
kinact/KI (CASP8; enzyme activity, inhibitor): 422000 M⁻¹ s⁻¹

O=C(CC1CC2CCC1C2)NCCNC(=O)Cn1c(=O)[nH]c(=O)c2ccccc21 (centres unmarked)
inhibition (PARP1 (Homo sapiens, UniProt P09874); enzyme activity, inhibitor; 5 nM): 0%

CC(=O)N[C@@H](CC(=O)O)C(=O)N[C@@H](CCCC(=O)O)C(=O)N[C@@H](CC(C)C)C(=O)N[C@@H](CC(=O)O)C(=O)COC(=O)c1c(C)cccc1C
kinact/KI (CASP8; enzyme activity, inhibitor): 924000 M⁻¹ s⁻¹

O=C(CCc1ccc2n1[B-](F)(F)[N+]1=C(c3ccc[nH]3)C=CC1=C2)NCCCn1cc(COC[C@H]2CN(Cc3ccccn3)C(=O)[C@@H]3CCC[C@H]2N3S(=O)(=O)c2cc(Cl)cc(Cl)c2)nn1
Hill slope (FKBP1A (Homo sapiens, UniProt P62942); tracer binding, NanoBRET tracer titration; HEK293T transiently expressing FKBP1A): 0.6 ± 0.1

C=CC(=O)N1CC2(CCN(c3nc(OC4CCN(CCCOC)CC4)nc4c(OCC(F)(F)F)c(-c5c(C)ccc6[nH]ncc56)c(C5CC5)cc34)CC2)C1
kinact/KI (GTPase KRas, GDP-bound (KRAS, Homo sapiens, UniProt P01116, C118S/G12C); covalent inhibitor): 673000 M⁻¹ s⁻¹

N[C@H]1CC[C@H](Nc2nccc(-c3cccnc3Oc3ccc(NC(=O)NC4CC4)c4ccccc34)n2)CC1
log2 LFQ intensity (Small ribosomal subunit protein uS3 (Homo sapiens, UniProt P23396); kinobead competition pulldown, refers to: RPS3; HEK293/HCT116 lysate mixture; 10 µM, 1 h, 4 °C; lower = stronger competition): 23.9 and 23.5

CC(=O)N1CCC[C@H]1C(=O)N[C@@H](CCC(N)=O)C(=O)N[C@@H](C)C(=O)N[C@@H](CC(=O)O)C(=O)COC(=O)c1c(C)cccc1C
kinact/KI (CASP8; enzyme activity, inhibitor): 145000 M⁻¹ s⁻¹

Cc1ccc(C(=O)Nc2ccc(CN3CCN(C)CC3)c(C(F)(F)F)c2)cc1C#Cc1cnc2cccnn12
Hill slope (TYK2 (Homo sapiens, UniProt P29597); target engagement, NanoBRET; human cells): 0.818

O=c1c(-c2ccc(Cl)c(CN3CCOCC3)c2)coc2cc(O)ccc12
DHEA metabolism (HSD3B1; [3H]-DHEA conversion; LNCaP; 0.1 µM, normalized to protein, unit not given; reference: vehicle): 2.55

CC(=O)N[C@@H](CC(=O)O)C(=O)N[C@@H](C)C(=O)N[C@@H](Cc1ccc(N)cc1)C(=O)N[C@@H](CC(=O)O)C(=O)COC(=O)c1c(C)cccc1C
kinact/KI (Caspase-10 (CASP10, Homo sapiens, UniProt Q92851); enzyme activity, inhibitor): 46000 M⁻¹ s⁻¹

CC(C)Oc1cc(Cl)ccc1CNc1cc(-c2ccccc2)nc2ncnn12
cAMP luminescence (GPR3 (Homo sapiens, UniProt P46089); cAMP reporter; human cells; 3 µM; higher is more cAMP): 5870 a.u. and 8000 a.u. and 4580 a.u. and 1880 a.u. and 2880 a.u. and 3620 a.u. and 5230 a.u.

CCCCCC=CC=C1C(=O)C=CC1CC=CCCCC(=O)O (centres unmarked)
isoTOP-ABPP competition ratio (Enoyl-CoA delta isomerase 2 (ECI2, Homo sapiens, UniProt O75521); competitive isoTOP-ABPP, refers to: PECI cysteine peptide; proteome, soluble, MDA-MB-231; 100 µM, together with: iodoacetamide probe; reference: DMSO over compound-treated, higher = stronger cysteine blockade): 7.4

CC[C@H](C)[C@H](NC(=O)[C@H](CCC(N)=O)NC(=O)[C@@H](NC(=O)[C@@H]1CCCN1[C@@H]1CN(C(=O)[C@H](CCCCN)NC(=O)[C@H](CC(N)=O)NC(=O)[C@@H](NC(=O)[C@@H](NC(=O)[C@H](CCC(N)=O)NC(=O)[C@@H](N)C(C)C)[C@@H](C)CC)[C@@H](C)CC)CC[C@H]1NS(=O)(=O)c1ccc(C)cc1)C(C)C)C(=O)N[C@H](C(=O)N[C@@H](Cc1ccc(O)cc1)C(=O)N[C@@H](CCCCN)C(N)=O)C(C)C
ThT fluorescence (MAPT (Homo sapiens, UniProt P10636); fibril formation, ThT fluorescence; 1-fold of tau, at plateau, together with: wild-type tau 10 µM, heparin; reference: untreated): 71 ± 16%

C=C1C(=O)C2(C(=O)N3CCCC3)CC(=O)CC1C2 (racemic)
kinact/KI (PTPN11 (Homo sapiens, UniProt Q06124); enzyme activity, covalent inhibitor; together with: pNPP substrate): 13.4 M⁻¹ s⁻¹

Cc1cn(CC(=O)N(CC(=O)N[C@H]2COC[C@@H]2N(CC(=O)NCCOCCOCC(N)=O)C(=O)Cn2cnc3c(N)ncnc32)[C@H]2COC[C@@H]2NC(=O)CN(C(=O)Cn2cnc3c(N)ncnc32)[C@H]2COC[C@@H]2NC(=O)CN(C(=O)Cn2cnc3c(=O)[nH]c(N)nc32)[C@H]2COC[C@@H]2NC(=O)CN(C(=O)Cn2cc(C)c(=O)[nH]c2=O)[C@H]2COC[C@@H]2NC(=O)CN(C(=O)Cn2cnc3c(=O)[nH]c(N)nc32)[C@H]2COC[C@@H]2NC(=O)CN(C(=O)Cn2cc(C)c(=O)[nH]c2=O)[C@H]2COC[C@@H]2NC(=O)CN(C(=O)Cn2cnc3c(N)ncnc32)[C@H]2COC[C@@H]2NC(=O)CN(C(=O)Cn2cnc3c(=O)[nH]c(N)nc32)[C@H]2COC[C@@H]2N)c(=O)[nH]c1=O
ΔG (complementary DNA; duplex formation, UV melting curve fit; PBS; 1 µM, 298 K): -19.6 ± 0.1 kcal/mol

O=c1c(-c2ccc(Cl)cc2)coc2cc(O)ccc12
DHEA metabolism (HSD3B1; [3H]-DHEA conversion; LNCaP; 0.1 µM, normalized to protein, unit not given; reference: vehicle): 1.21

CN1CCC[C@@H]1C(=O)N[C@@H](Cc1ccc(-c2ccccc2)cc1)B(O)O
kobs/[I] (20S proteasome (Plasmodium falciparum, UniProt A0A5K1K7U1+Q8IJT1); inhibitor, progress curve): 111000 M⁻¹ s⁻¹

CC(=O)N[C@@H](Cc1c[nH]c2ccccc12)C(=O)N[C@@H](CCC(=O)O)C(=O)N[C@@H](C)C(=O)N[C@@H](CC(=O)O)C(=O)COC(=O)c1c(C)cccc1C
kinact/KI (CASP8; enzyme activity, inhibitor): 1.89e+06 M⁻¹ s⁻¹

Cc1ccc2[nH]c(=O)cc(NCCO)c2c1
agonist activity (ADRA1A (Homo sapiens, UniProt P35348); intracellular Ca2+ mobilization, agonist; COS-7; 500 µM; reference: 3 µM ionomycin): 0.44 ± 0.19%

CC[C@H](C)[C@H](NC(=O)[C@H](CCC(=O)O)NC(=O)[C@H](Cc1ccc(I)cc1)NC(C)=O)C(=O)N[C@@H](CC(=O)O)C(=O)COC(=O)c1c(C)cccc1C
kinact/KI (CASP8; enzyme activity, inhibitor): 956000 M⁻¹ s⁻¹

C[n+]1cn([C@@H]2O[C@H](COP(=O)([O-])OP(=O)(O)CP(=O)(O)OP(=O)(O)OC[C@H]3O[C@@H](n4cnc5c(=O)[nH]c(N)nc54)[C@H](O)[C@@H]3O)[C@@H](O)[C@H]2O)c2nc(N)nc(O)c21
hydrolysis (DCPS (Homo sapiens, UniProt Q96C86); substrate, HPLC; 0.04 mM, 1 h, 37 °C): 0%

CC(=O)N[C@@H](CC(C)C)C(=O)N[C@@H](CCC(N)=O)C(=O)N[C@@H](CCC(=O)O)C(=O)N[C@@H](CC(=O)O)C(=O)COC(=O)c1c(C)cccc1C
kinact/KI (CASP8; enzyme activity, inhibitor): 364000 M⁻¹ s⁻¹

O=C(N1CCCC1)n1cc(-c2ccc(-c3ccccc3)cc2)nn1
SILAC activity ratio (Palmitoyl-protein thioesterase ABHD10, mitochondrial (Mus musculus, UniProt Q6PE15); probe labelling, inhibitor, competitive ABPP-SILAC, refers to: Abhd10; mouse T cells; concentration not given, 4 h, protein level; reference: treated over DMSO cells, lower = stronger inhibition): 1.29

Some of these lines once more:
CC(=O)N[C@@H](CC(=O)O)C(=O)N[C@@H](CCCC(=O)O)C(=O)N[C@@H](CC(C)C)C(=O)N[C@@H](CC(=O)O)C(=O)COC(=O)c1c(C)cccc1C
kinact/KI (CASP8; enzyme activity, inhibitor): 924000 M⁻¹ s⁻¹
